Published values from different studies.
Compare with care: the assays were run in different laboratories. Several values in a cell are separate wells, animals, samples, runs or records. ± marks the error that the study gave.
Kir3.1/Kir3.4: Kir3.1/Kir3.4 (Homo sapiens, UniProt P48544+P48549)
UniProt P48549, sequence (whole entry, looked up): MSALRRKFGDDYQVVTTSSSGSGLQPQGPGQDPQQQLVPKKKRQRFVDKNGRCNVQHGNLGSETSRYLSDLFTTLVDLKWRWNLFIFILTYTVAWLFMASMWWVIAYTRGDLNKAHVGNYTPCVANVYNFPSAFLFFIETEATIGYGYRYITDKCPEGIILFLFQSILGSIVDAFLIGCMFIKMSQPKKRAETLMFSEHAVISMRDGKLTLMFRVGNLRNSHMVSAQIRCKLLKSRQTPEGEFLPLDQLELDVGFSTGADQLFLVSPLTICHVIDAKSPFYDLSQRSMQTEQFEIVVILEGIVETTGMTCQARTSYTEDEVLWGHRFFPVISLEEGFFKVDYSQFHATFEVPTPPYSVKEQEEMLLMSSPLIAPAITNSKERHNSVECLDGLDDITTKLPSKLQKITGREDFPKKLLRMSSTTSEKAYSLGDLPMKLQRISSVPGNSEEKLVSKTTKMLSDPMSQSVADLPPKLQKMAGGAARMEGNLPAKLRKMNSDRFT
UniProt P48544, sequence (whole entry, looked up): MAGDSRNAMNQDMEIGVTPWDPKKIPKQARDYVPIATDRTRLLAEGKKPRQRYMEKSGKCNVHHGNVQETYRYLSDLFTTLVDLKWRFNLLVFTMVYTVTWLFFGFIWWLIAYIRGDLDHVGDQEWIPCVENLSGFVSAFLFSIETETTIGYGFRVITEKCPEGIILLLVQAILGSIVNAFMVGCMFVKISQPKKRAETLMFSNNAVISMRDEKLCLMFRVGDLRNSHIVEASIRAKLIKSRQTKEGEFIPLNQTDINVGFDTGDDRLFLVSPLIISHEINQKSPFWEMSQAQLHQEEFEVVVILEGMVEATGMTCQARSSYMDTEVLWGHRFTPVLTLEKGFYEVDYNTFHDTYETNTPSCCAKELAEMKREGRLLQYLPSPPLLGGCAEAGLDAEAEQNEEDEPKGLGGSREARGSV
AKR1B1: Aldo-keto reductase family 1 member B1 (AKR1B1, Homo sapiens, UniProt P15121)
pyrD: Dihydroorotate dehydrogenase (quinone) (pyrD, Acinetobacter baumannii, UniProt B7GZW7)
UniProt B7GZW7, sequence (whole entry, looked up): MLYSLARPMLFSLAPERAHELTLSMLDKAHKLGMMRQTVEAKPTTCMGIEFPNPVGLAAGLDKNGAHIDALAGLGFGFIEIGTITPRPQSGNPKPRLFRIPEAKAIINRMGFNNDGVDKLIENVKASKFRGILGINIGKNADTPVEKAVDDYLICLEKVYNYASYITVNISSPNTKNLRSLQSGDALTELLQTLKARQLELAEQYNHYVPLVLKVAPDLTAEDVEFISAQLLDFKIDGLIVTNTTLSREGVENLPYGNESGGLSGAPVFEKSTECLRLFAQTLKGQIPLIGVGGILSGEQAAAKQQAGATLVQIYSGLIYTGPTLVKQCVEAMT
T1: riboswitch RNA A38C (Bacillus); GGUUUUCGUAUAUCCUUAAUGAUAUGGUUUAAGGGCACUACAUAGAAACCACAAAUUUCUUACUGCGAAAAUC
T2: riboswitch RNA yjdF aptamer, shortened P1/P3/P4, L3/L4 GAAA (Bacillus subtilis); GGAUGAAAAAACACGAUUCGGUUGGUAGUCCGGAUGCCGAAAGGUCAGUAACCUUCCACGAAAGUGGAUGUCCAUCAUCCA
UniProt Q64663, sequence (whole entry, unmodified, looked up): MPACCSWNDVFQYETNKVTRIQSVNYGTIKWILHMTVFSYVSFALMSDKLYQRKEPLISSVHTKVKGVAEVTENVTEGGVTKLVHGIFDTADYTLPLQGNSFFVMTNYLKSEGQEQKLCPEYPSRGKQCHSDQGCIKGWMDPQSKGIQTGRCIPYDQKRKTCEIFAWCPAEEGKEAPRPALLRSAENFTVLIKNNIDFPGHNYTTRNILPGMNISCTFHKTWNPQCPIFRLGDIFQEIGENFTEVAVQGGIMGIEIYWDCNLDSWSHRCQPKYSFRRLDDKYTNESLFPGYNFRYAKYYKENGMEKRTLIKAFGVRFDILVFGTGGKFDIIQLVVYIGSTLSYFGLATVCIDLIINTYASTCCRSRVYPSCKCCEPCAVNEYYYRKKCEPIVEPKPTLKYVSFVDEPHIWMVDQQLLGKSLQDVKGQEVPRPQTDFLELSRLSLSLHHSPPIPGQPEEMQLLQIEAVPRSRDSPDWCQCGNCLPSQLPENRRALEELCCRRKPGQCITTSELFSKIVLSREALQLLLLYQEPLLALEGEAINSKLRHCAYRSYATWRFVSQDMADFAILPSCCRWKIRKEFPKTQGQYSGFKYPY
UniProt P51575, sequence (whole entry, unmodified, looked up): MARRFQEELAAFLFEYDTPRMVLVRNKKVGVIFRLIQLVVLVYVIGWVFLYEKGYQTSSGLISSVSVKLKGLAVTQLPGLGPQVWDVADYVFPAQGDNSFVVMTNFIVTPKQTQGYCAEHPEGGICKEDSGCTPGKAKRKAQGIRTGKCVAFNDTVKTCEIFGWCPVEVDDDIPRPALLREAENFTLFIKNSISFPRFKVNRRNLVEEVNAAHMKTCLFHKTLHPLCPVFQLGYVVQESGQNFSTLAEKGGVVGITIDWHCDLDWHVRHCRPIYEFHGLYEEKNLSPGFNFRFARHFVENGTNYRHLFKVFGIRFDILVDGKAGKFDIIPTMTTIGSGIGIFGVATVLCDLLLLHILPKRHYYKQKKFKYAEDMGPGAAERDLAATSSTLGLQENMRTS
UniProt P11388, sequence (whole entry, looked up): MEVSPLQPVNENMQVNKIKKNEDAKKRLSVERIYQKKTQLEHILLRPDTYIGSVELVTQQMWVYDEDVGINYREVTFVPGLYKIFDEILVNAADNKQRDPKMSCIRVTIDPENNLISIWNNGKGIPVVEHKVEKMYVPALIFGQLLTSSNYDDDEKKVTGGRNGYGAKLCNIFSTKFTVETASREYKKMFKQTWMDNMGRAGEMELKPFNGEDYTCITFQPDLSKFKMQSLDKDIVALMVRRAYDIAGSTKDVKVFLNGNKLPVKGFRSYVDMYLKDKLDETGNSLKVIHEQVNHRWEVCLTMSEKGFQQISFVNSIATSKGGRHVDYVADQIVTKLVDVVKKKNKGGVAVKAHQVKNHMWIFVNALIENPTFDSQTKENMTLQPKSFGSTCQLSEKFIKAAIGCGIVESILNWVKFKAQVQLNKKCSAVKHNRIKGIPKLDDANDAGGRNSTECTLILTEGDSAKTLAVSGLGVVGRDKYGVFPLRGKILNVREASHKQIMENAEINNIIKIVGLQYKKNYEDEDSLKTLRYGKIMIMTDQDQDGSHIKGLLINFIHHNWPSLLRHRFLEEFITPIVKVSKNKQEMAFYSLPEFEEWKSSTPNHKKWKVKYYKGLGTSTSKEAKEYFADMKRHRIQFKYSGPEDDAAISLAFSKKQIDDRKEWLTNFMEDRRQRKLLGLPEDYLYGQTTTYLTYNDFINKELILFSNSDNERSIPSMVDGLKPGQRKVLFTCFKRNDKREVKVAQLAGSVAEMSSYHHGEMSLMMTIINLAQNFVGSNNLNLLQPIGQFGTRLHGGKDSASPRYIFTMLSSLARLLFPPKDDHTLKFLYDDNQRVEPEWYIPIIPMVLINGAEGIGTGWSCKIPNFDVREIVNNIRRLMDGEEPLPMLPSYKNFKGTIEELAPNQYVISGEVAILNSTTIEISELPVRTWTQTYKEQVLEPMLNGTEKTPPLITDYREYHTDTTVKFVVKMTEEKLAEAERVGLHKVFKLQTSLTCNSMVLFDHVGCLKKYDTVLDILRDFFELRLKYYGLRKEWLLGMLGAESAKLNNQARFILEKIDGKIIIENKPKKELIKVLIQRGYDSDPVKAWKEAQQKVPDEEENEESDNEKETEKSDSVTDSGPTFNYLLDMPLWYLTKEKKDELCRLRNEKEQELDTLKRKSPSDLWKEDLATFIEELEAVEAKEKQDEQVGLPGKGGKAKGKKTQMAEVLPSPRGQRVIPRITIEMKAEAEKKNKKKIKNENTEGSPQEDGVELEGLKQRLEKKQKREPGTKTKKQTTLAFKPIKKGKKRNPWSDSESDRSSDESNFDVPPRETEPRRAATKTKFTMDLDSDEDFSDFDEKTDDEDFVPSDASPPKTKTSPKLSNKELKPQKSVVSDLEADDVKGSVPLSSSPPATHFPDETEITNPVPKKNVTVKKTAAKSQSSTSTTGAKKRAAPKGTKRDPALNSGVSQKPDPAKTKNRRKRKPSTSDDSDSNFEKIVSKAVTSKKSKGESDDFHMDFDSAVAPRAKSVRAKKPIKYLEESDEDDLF
UniProt Q8TDC3, sequence (whole entry, looked up): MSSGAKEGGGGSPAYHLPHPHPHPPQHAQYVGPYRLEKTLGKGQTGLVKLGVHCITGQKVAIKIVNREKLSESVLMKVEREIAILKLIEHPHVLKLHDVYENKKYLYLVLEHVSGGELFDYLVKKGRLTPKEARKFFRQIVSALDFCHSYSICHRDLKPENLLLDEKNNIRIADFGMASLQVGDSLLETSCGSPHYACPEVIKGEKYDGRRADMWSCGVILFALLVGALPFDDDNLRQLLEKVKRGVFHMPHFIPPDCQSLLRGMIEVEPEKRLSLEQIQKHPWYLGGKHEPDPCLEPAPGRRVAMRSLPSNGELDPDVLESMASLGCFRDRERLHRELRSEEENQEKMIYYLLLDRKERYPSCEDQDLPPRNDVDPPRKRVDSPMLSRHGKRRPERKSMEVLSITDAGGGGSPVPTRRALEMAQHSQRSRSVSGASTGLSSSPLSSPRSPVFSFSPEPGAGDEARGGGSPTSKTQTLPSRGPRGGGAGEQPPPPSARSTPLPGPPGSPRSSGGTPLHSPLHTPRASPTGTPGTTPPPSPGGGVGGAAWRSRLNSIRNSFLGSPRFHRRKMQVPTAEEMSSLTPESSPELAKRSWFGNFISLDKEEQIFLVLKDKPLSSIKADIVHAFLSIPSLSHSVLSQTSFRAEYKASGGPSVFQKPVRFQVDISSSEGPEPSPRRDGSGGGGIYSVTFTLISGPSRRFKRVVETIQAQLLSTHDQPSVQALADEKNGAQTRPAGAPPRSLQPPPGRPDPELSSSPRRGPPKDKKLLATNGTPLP
UniProt Q6P2M8, sequence (whole entry, looked up): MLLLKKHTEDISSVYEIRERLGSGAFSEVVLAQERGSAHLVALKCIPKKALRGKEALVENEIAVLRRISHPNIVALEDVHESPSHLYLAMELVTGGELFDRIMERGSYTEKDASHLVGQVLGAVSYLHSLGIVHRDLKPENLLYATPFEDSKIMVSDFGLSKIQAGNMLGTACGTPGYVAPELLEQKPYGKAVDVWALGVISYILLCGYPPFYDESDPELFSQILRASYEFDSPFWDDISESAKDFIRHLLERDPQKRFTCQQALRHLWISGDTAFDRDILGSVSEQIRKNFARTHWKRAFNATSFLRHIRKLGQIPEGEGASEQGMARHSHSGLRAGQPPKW

| SMILES | target or system | test | test system | setting | scale | endpoint | result |
| --- | --- | --- | --- | --- | --- | --- | --- |
| CC[C@H](C)[C@H](NC(=O)[C@H](CCC(=O)O)NC(=O)[C@H](C)NC(=O)[C@@H](NC(=O)[C@H](Cc1c[nH]cn1)NC(=O)[C@H]1CCC[C@@H]1NC(=O)[C@H](CCC(=O)O)NC(=O)[C@H](C)NC(=O)[C@H]1CCC[C@@H]1NC(=O)[C@H](CC(C)C)NC(=O)[C@H](Cc1c[nH]cn1)NC(=O)[C@H](Cc1c[nH]cn1)NC(=O)[C@H]1CCC[C@@H]1NC(=O)[C@H](Cc1ccccc1)NC(=O)[C@H](Cc1ccccc1)NC(=O)[C@H](CCCNC(=N)N)NC(=O)[C@H](CCCNC(=N)N)NC(=O)[C@H](CCCNC(=N)N)NC(=O)[C@H]1CCC[C@@H]1NC(=O)[C@H](CC(=O)O)NC(=O)[C@H](CCC(N)=O)NC(=O)[C@@H](NC(=O)C[C@H](Cc1c[nH]c2ccccc12)NC(=O)[C@H](CCCCN)NC(=O)[C@@H](Cc1c[nH]c2ccccc12)NC(=O)[C@H](CC(C)C)NC(=O)[C@H](CC(=O)O)NC(=O)[C@H](Cc1c[nH]cn1)NC(=O)[C@H](CC(C)C)NC(=O)C[C@@H](N)CC(C)C)[C@@H](C)CC)[C@@H](C)O)C(N)=O | PTH1R (Homo sapiens, UniProt Q03431) | inverse agonist, GloSensor cAMP | HEK293 expressing PTH1R |  |  | basal cAMP formation | decreased |
| CCCN(CCC)S(=O)(=O)c1ccc(-c2n[nH]c(=S)o2)cc1 | P2X purinoceptor 4 (P2RX4, Homo sapiens, UniProt Q99571) | calcium mobilization | MCF7 stably transfected | 100 µM, added: ATP 100 µM |  | fluorescence increase | 74.4 ± 0.89% |
| C[n+]1cn([C@@H]2O[C@H](COP(=O)(O)O)[C@@H](O)[C@H]2O)c2nc(N)[nH]c(=O)c21 | DCPS (Homo sapiens, UniProt Q96C86) | binding, stopped-flow fluorescence | 10% glycerol | 20 °C |  | association rate constant | 3.08e+07 ± 2e+06 M⁻¹ s⁻¹ |
| Nc1nc(=O)n([C@H]2C[C@H](O)[C@@H](CO)O2)cc1CNCC(CC[C@H](N)C(=O)O)C[C@H]1O[C@@H](n2cnc3c(N)ncnc32)[C@H](O)[C@@H]1O (stereo partly shown) | DNMT1 (Homo sapiens, UniProt P26358) | radiometric [3H]-SAM |  | concentration not given, added: SAM, poly(dI-dC) |  | inhibition type | inhibited |
| Nc1nc2c(ncn2[C@H]2C[C@H](O)[C@@H](CO)O2)c(=O)[nH]1 | T1, riboswitch RNA A38C (Bacillus) | ITC |  | KCl 50 mM |  | Kd | 0.8 µM |
| O=c1nc(SCc2cc(F)cc(C(F)(F)F)c2)nc(SCc2ccc3sccc3c2)[nH]1 | TOP2A (Homo sapiens, UniProt P11388) | ATPase activity |  | 1.95 µM, added: ATP 0.5 mM |  | ATP hydrolysis rate | 1.97 µM/min and 1.95 µM/min |
| COc1cc(Nc2ncc3c(n2)-c2ccc(Cl)cc2C(c2c(F)cccc2OC)=NC3)ccc1C(=O)O | CaMKI delta (CAMK1D) | enzyme activity |  | 1 µM |  | remaining activity | 62% |
| O=C(O)CCCC(=O)O |  | binding, MIDAS equilibrium dialysis LC-MS | A2AR-BRIL thermostabilized | concentration not given | reference: no-protein control | log2 fold change | -0.383 |
| O=C(O)[C@@H]1CCCN1c1ncnc2[nH]cnc12 (racemic) | Protein transport protein Sec31A (SEC31A, Homo sapiens, UniProt O94979) | binding, affinity selection mass spectrometry |  |  | reference: other proteins in batch | fold enrichment | 0.963 |
| CCCCC/C=C\C/C=C\C/C=C\C/C=C\CCCC(=O)O | Cytochrome P450 2J2 (CYP2J2, Homo sapiens, UniProt P51589, L2A/T318V) | substrate |  | 50 µM |  | metabolism rate | 42.8 ± 1.3 pmol/min/nmol CYP2J2 |
| N[C@@H](Cc1ccc(O)cc1)C(=O)Nc1ccc2ccccc2c1 | rat aminopeptidase III | substrate |  |  |  | Km | 7.7 µM |
| COc1cc(F)ccc1-c1ncnc(Nc2cccc(C[S@](C)(=N)=O)c2)n1 | BRSK1 (Homo sapiens, UniProt Q8TDC3) | kinase activity |  | 10 µM, added: 10 µM ATP |  | remaining activity | 92% |
| Nc1ncnc2c1ncn2[C@@H]1O[C@H](COP(=O)(O)CP(=O)(O)OP(=O)(O)O)[C@@H](O)[C@H]1O | P2X purinoceptor 1 (P2RX1, Homo sapiens, UniProt P51575, M214A) | saturation binding | HEK293 | 1 nM |  | specific binding | 39.5 CCPM and 5 CCPM and 25 CCPM |
| O=C(O)CC12CC3CC(CC(C3)C1)C2 | DNA topoisomerase 2-binding protein 1, BRCT7-8 domains (TOPBP1, Homo sapiens, UniProt Q92547) | binding, NMR HSQC titration |  | BRCT7-8 domains |  | ligand efficiency | 0.38 kcal/mol/heavy atom |
| CC(C)(COP(=O)(O)OP(=O)(O)OC[C@H]1O[C@@H](n2cnc3c(N)ncnc32)[C@H](O)[C@@H]1OP(=O)(O)O)[C@@H](O)C(=O)NCCC(=O)NCCS | Carnitine O-acetyltransferase (CRAT, Columba livia, UniProt P52826) | stopped-flow global fit |  | pH 7.8, ambient, ordered bi-bi mechanism |  | Ki | 102 µM |
| O=C(COc1cccc(Cl)c1Cl)Nc1cc(C2CCC2)nn1C1CCOCC1 | Kir3.1/Kir3.4 | activator | HEK293 |  |  | Emax | < 10% |
| O=C(CN1C(=O)S/C(=C\c2ccc(Br)cc2)C1=O)c1ccc([N+](=O)[O-])cc1 | AKR1B1 | enzyme activity, inhibitor |  |  |  | Hill slope | -0.435 |
| NC/C(=C\F)COc1cccc(Cn2c(=S)[nH]c(=O)c3[nH]cnc32)c1 | CACNA1C (Homo sapiens, UniProt Q13936) | peak ion current, inhibitor, automated patch clamp |  | 100 µM, pulse 1, single recording |  | inhibition | 38.7% and 28.4% |
| CNc1ncc2c(/C=C/C(=O)N3CCC(OC)CC3)nn(Cc3cccc(C(F)(F)F)c3)c2n1 | GRK4 (Homo sapiens, UniProt P32298) | kinase activity, inhibitor |  | 1 µM | reference: untreated control | remaining activity | 116% |
| Oc1ccccc1-c1n[nH]cc1-c1ccnc2ccccc12 | Serine/threonine-protein kinase CLA4 (CLA4, Candida albicans, UniProt O14427) | kinase binding, MIB/MS competition | Candida albicans lysate | 10 µM | reference: DMSO, negative = stronger binding | log2 fold change | 0 |

| SMILES | target or system | test | test system | setting | scale | endpoint | result |
| --- | --- | --- | --- | --- | --- | --- | --- |
| CC1=NOC(=O)C1=NNc1ccc(S(N)(=O)=O)cc1 | bovine α-glucosidase | enzyme activity, inhibitor, glucose oxidase |  | 200 µg/mL, added: maltose |  | inhibition | 40.1% |
| CC(C)CC(=O)C(=O)O |  | binding, MIDAS equilibrium dialysis LC-MS | A2AR-BRIL thermostabilized | concentration not given | reference: no-protein control | log2 fold change | -0.459 |
| Cc1cc(Nc2cc(N3CCN(C)CC3)nc(Sc3ccc(NC(=O)C4CC4)cc3)n2)[nH]n1 | TYRO3 (Homo sapiens, UniProt Q06418) | kinase activity, KinaseProfiler |  | 0.03 µM, species human | reference: control | remaining activity | 109% |
| C=CC(=O)N1CCC(COCC(=O)N2CCN(c3nc(-c4cnc(N)nc4C(F)F)nc(N4CCOC[C@@H]4C)n3)CC2)CC1 | MAP3K6 (Homo sapiens, UniProt O95382) | KINOMEscan |  | 1 µM |  | remaining binding | 96% |
| COc1ccc(/C=C2\SC(=O)N(CC(=O)c3ccc([N+](=O)[O-])cc3)C2=O)cc1 | AKR1B1 | enzyme activity, inhibitor |  |  |  | Hill slope | -0.555 |
| [O-][S+]1CCCCS1 (stereo not shown) | SOD1 (Homo sapiens, UniProt P00441, G94A) | LC-MS | human whole blood | 500 µM, 1 h, 37 °C |  | SOD1 dimer fraction | 59% |
| O=C(COc1ccc(Cl)cc1Cl)Nc1cc(C2CC2)nn1C1CCC(F)(F)CC1 | Kir3.1/Kir3.4 | thallium flux, activator | HEK293 |  | reference: standard compound | Emax | 46% |
| CC1=NNC(=O)C1=NNc1ccc(S(N)(=O)=O)cc1 | bovine α-glucosidase | enzyme activity, inhibitor, glucose oxidase |  | 500 µg/mL, added: maltose |  | inhibition | 39% |
| O=C(O)c1ccc(C(=O)O)c(-c2c3ccc(=O)cc-3oc3cc(O)ccc23)c1 | SLC22A11 (Homo sapiens, UniProt Q9NSA0) | substrate | CHO cells expressing human OAT4 | 5 min, pH 7.4 |  | Jmax | 1300 ± 1280 pmol/cm2/min |
| CCCCCCCc1ccc(Nc2cc(C)nc3ncnn23)cc1 | pyrD | enzyme activity, inhibitor, colorimetric HTS, refers to: DCIP reduction |  | 3 µM | direction not given | robust Z-score | 18.5 |
| Nc1ncnc2c1ncn2[C@@H]1O[C@H](COP(=O)(O)OP(=O)(O)OP(=O)(O)O)[C@@H](O)[C@H]1O | P2X purinoceptor 7 (P2rx7, Rattus norvegicus, UniProt Q64663, I214A) | ion current, agonist, two-electrode voltage clamp | Xenopus laevis oocytes | 100 µM | reference: highest concentration response | normalized current | 0.73 and 0.817 and 0.635 |
| O=C(COP(=O)(O)O)[C@@H](O)[C@H](O)[C@H](O)COP(=O)(O)O | Transcription elongation regulator 1 (Homo sapiens, UniProt O14776) | thermal proteome profiling, refers to: TCERG1 | HepG2 cell lysate | concentration not given, 57 over 37 °C, mean | reference: compound over control | thermal stability ratio | 0.582 |
| Cc1cc(Nc2ccc3c(c2)CCCC3)n2ccnc2n1 | pyrD | enzyme activity, inhibitor, colorimetric HTS, refers to: DCIP reduction |  | 3 µM | direction not given | robust Z-score | 24.7 |
| O=C(COc1cc(Cl)ccc1Cl)Nc1cc(C2CCC2)nn1C1CCOCC1 | Kir3.1/Kir3.4 | thallium flux, activator | HEK293 |  | reference: standard compound | Emax | 18% |
| O=C(NC1CCC1)c1ccc2nc(-c3cccc(NS(=O)(=O)NCCN4CCCCC4)c3)cn2c1 | PNCK (Homo sapiens, UniProt Q6P2M8) | enzyme activity |  | 10 µM |  | remaining activity | 100% |
| CC[C@H](C)[C@H](NC(=O)[C@@H](NC(=O)[C@@H]1CCCN1C(=O)[C@H](CO)NC(=O)[C@H](C)N)C(C)C)C(=O)N[C@@H](Cc1ccc(O)cc1)C(=O)N[C@@H](Cc1c[nH]cn1)C(=O)N[C@@H](CC(C)C)C(N)=O | Interleukin-17 receptor A (IL17RA, Homo sapiens, UniProt Q96F46) | binding, surface plasmon resonance |  |  |  | kon | 5.47e+06 M⁻¹ s⁻¹ |
| Cc1cc2nc3[nH]c(=O)[nH]c(=O)c3nc2cc1C | T2, riboswitch RNA yjdF aptamer, shortened P1/P3/P4, L3/L4 GAAA (Bacillus subtilis) | fluorescence titration |  | added: 380 nM lumichrome |  | Kd | 0.04 µM |
| Cc1n[nH]c2ccc(-c3cc(OC[C@@H](N)Cc4ccccc4)cnc3-c3ccoc3)cc12 | Cyclin-dependent kinase 1 (CDC28, Candida albicans, UniProt P43063) | kinase binding, competitor, MIB/MS competition, refers to: CDC28 | Candida albicans cell lysate | 100 nM | reference: DMSO | log2 fold change | 0.12 |
| Nc1cc(Nc2ccc(C(F)(F)F)cc2)n2ncnc2n1 | pyrD | enzyme activity, inhibitor, colorimetric HTS, refers to: DCIP reduction |  | 3 µM | direction not given | robust Z-score | 17.8 |
| N#Cc1ccsc1NC(=O)COc1cccc(Cl)c1Cl | Kir3.1/Kir3.4 | activator, thallium flux | HEK293 | concentration not given |  | activity | inactive |

A few entries again:
| SMILES | target or system | test | test system | setting | scale | endpoint | result |
| --- | --- | --- | --- | --- | --- | --- | --- |
| O=C(O)CC12CC3CC(CC(C3)C1)C2 | DNA topoisomerase 2-binding protein 1, BRCT7-8 domains (TOPBP1, Homo sapiens, UniProt Q92547) | binding, NMR HSQC titration |  | BRCT7-8 domains |  | ligand efficiency | 0.38 kcal/mol/heavy atom |
| CC(C)(COP(=O)(O)OP(=O)(O)OC[C@H]1O[C@@H](n2cnc3c(N)ncnc32)[C@H](O)[C@@H]1OP(=O)(O)O)[C@@H](O)C(=O)NCCC(=O)NCCS | Carnitine O-acetyltransferase (CRAT, Columba livia, UniProt P52826) | stopped-flow global fit |  | pH 7.8, ambient, ordered bi-bi mechanism |  | Ki | 102 µM |
| O=C(COc1cccc(Cl)c1Cl)Nc1cc(C2CCC2)nn1C1CCOCC1 | Kir3.1/Kir3.4 | activator | HEK293 |  |  | Emax | < 10% |
| O=C(CN1C(=O)S/C(=C\c2ccc(Br)cc2)C1=O)c1ccc([N+](=O)[O-])cc1 | AKR1B1 | enzyme activity, inhibitor |  |  |  | Hill slope | -0.435 |
| NC/C(=C\F)COc1cccc(Cn2c(=S)[nH]c(=O)c3[nH]cnc32)c1 | CACNA1C (Homo sapiens, UniProt Q13936) | peak ion current, inhibitor, automated patch clamp |  | 100 µM, pulse 1, single recording |  | inhibition | 38.7% and 28.4% |
| CNc1ncc2c(/C=C/C(=O)N3CCC(OC)CC3)nn(Cc3cccc(C(F)(F)F)c3)c2n1 | GRK4 (Homo sapiens, UniProt P32298) | kinase activity, inhibitor |  | 1 µM | reference: untreated control | remaining activity | 116% |
